Assay results collected from several papers.
Each numbered part is a random draw from the data of one study; scales do not carry over between parts.

Study 1 — method: protein binding microarray; form: double-stranded DNA, one strand shown; medium: in vitro; tested at: not given; reference: not given; direction: higher = stronger binding; quantity: E-score
Target: Histone acetyltransferase KAT6A, winged helix 2, GST fusion (KAT6A, Homo sapiens, UniProt Q92794, residues 85-181)
Notes: 8-mer, flanks averaged, mean of 2 arrays, mostly near background
Target sequence (chain): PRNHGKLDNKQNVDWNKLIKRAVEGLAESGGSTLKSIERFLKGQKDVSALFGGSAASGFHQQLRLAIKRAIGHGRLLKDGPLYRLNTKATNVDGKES
TAACGACA: 0.05
CTATGTTC: -0.0599
AGCTTCAT: 0.00023
AACCCCTG: -0.0161
GGCACTGA: 0.0911
CACTCCTG: 0.0158
CTAGATAA: 0.026
CCAGATGC: 0.0409
ACAGCGGG: 0.198
AGGGGATC: -0.141
GCTCATAC: -0.0205
CACCGTTA: 0.0425
ACCCTTTG: -0.0348
AGCACTAC: 0.0171
GAGCCTAC: -0.0327
ATCTCGCA: 0.169
CTGAACCC: 0.0359
ACCCATAA: -0.115
ACCCAGAT: 0.0174
TCCTGTAA: -0.078

Study 2 — method: RNA Bind-n-Seq; form: RNA; medium: in vitro; tested at: 200 nM; notes: whole 134-nt RNA, ends assumed; added: 150 mM LiCl; reference: input library; direction: higher = stronger binding; quantity: log2 enrichment; each molecule: 7-deaza-guanosine replaces G
Target: Ras GTPase-activating protein-binding protein 1, full length (G3BP1, Homo sapiens, UniProt Q13283)
UniProt Q13283, sequence (whole entry, looked up): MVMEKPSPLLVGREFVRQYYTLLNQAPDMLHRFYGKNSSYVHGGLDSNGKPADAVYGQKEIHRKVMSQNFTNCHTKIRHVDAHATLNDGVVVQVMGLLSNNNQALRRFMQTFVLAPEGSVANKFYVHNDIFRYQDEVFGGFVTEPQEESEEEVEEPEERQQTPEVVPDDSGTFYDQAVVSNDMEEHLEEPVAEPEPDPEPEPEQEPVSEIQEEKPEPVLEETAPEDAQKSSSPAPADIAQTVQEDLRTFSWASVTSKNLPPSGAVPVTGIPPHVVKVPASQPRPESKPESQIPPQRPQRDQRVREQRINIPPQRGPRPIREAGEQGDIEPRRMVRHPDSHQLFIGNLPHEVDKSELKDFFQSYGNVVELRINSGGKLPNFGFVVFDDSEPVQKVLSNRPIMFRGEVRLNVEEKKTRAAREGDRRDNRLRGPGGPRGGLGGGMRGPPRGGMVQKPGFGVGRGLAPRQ
Constant ends, left off below: GGGAGUUCUACAGUCCGACGAUC … UGGAAUUCUCGGGUGUCAAGG
UGGCCCUGGUGGCAUGCGGGGAGUAAGAGGUGGCCUCAUGGAUCGUGGUGGUCCCGGUGGAAUGUUCAGAGGUGGCCGUGGUGGAGACAG: 0.487
UCCUGUGCUACACAUCGUAUGUACCGAAUCGGGAAAAAAGGGAAAAAAGGAAAAAAGGGAAAGUAUUAUGUUACGCCGUUCGGAUCUGCA: 0.0636
CAAGUCCUGUGCUACACAUCGUAUGUACCGAAUCGGUGGUUUUUGGUUUUUUUGGAAAGUAUUAUGUUACGCCGUUCGGAUCUGCACUUC: -0.309
UGGGAGGUGCAUUUUGUUUAUUUUUUUAGCUCAUUUCCAGGGGUGGGAAUUUUUUUUUAAUAUGUGUCAUGAAUAAAGUUGUUUUUGAAA: -0.164
UGGGAGGUGGAUUUUGCUUAUUUUUUUAGCUCAUUUCCAGGGGUGGGAAUUUUUUUUUAAUAUGUGUCAUGAAUAAAGUUGUUUUUGAAA: -0.397
UGUGCUACACAUCGUAUGUACCGAAUCGGGGUUUUUUUGGGGAAAAAGGGGAAAAAAAGGGGAAAGUAUUAUGUUACGCCGUUCGGAUCU: -0.458
AAGUCCUGUGCUACACAUCGUAUGUACCGAAUCGGGAGGGUUUUUGGGAAAAAGGGAAAGUAUUAUGUUACGCCGUUCGGAUCUGCACUU: 0.267
CAAGUCCUGUGCUACACAUCGUAUGUACCGAAUCGGAAAAAAAGGAGGAAAAAGGAAAGUAUUAUGUUACGCCGUUCGGAUCUGCACUUC: -0.511

Study 3 — method: protein-binding microarray; form: double-stranded DNA, one strand shown; medium: in vitro; tested at: not given; direction: higher = stronger binding; quantity: E-score
Target: Hepatocyte nuclear factor 3-beta, forkhead domain (FOXA2, Homo sapiens, UniProt Q9Y261, residues 142-269)
Notes: k-mer, scored over probes, only values ≥0.25
Target sequence (chain): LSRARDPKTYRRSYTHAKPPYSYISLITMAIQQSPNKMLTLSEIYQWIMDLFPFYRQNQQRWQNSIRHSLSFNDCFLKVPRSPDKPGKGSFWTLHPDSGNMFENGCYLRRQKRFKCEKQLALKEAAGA
CAACATCA: 0.328
ACACATAT: 0.37
ATGCTATA: 0.256
AAAAACAA: 0.295
CAAGTGTA: 0.338
ATGCAAAT: 0.258
AAAGCAAT: 0.281
ATACATTC: 0.317
AGTAGTAT: 0.263
AATAACGA: 0.277
ATAAAGTG: 0.307
ACTATTAA: 0.297
CAAATAGC: 0.291
AAATAATA: 0.292
ATCCTATC: 0.276
AGCATATA: 0.257
GACAATAA: 0.277
AACATGTA: 0.35
ATACCATA: 0.355
TACATCAA: 0.251
AGCTGTAT: 0.278
CATACAAA: 0.277

Study 4 — method: protein-binding microarray; form: double-stranded DNA, one strand shown; medium: in vitro; tested at: 2540 nM top; notes: 60-bp whole probe; added: salmon DNA 0.4 mg/ml; reference: random background probes; direction: higher = stronger binding; quantity: fitted relative affinity; constant ends, left off below: GCCTAGCAC … GTCTTGATTCGCTTGACGCTGCTG
Target: Interferon regulatory factor 3, full length, phosphomimetic (IRF3, Homo sapiens, UniProt Q14653, residues 1-427, S386D/S396D/S398D/S402D/T404D/S405D)
UniProt Q14653, sequence (whole entry, unmodified, looked up): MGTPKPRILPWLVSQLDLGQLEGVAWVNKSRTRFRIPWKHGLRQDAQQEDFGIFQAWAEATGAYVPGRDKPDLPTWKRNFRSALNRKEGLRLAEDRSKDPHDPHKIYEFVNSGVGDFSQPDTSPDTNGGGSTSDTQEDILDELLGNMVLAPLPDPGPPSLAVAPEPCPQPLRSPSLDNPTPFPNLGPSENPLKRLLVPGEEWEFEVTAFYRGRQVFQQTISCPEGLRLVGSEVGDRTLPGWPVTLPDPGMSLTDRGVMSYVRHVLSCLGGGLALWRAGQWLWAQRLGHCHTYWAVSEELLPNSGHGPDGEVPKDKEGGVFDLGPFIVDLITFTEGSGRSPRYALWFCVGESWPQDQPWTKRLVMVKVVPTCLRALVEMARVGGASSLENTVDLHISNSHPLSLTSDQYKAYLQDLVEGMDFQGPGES
GCCGGTTTCCTACTGCTGACGTGCTAG: 5.48 z-score
TTAGAACTGGGGTTGCGATTAGTGCTA: -0.213 z-score
TCAATTTTCCCCTACTGACTGTGCTAG: 1.68 z-score
TCAAATTTTCATTTTCCACTGTGCTAG: 2.72 z-score
GACGATTTCAGTATAGAGACGTGCTAG: 1.8 z-score
GACGGTATCGGTCTCGGAACGTGCTAG: 4.73 z-score
GACGGTTTGGACTATCGGGACGTGCTA: 0.0552 z-score
TTAGATTTCGGGTATCTATTAGTGCTA: 1.27 z-score
GACTATCTCAGTTTCGAGACGTGCTAG: 2.72 z-score
GACGGTTGCGGACTGGGGACGTGCTAG: 1.09 z-score
TCACATTTTCGTTTTGTACTGTGCTAG: 3.76 z-score
TCAGATTTTGTCCTCCCACTGTGCTAG: 0.258 z-score
TTAGGTTCCGGGACTGGGTTAGTGCTA: 0.423 z-score
TTAGGTGTCGACACTGGGTTAGTGCTA: 0.491 z-score
TTAGATATGAGTATCGATTAGTGCTAG: 0.278 z-score
GACGATATCAGTTTCGTGACGTGCTAG: 2.79 z-score
TCAAGCCTCCATTTTTAACTGTGCTAG: -0.182 z-score
CAGGGTCTCGCTTCATCTCCGTGCTAG: -0.357 z-score
GACGATCTCAGACTGGACACGTGCTAG: 0.312 z-score

For quick reference, copied from above (study 4):
GACGGTATCGGTCTCGGAACGTGCTAG: 4.73 z-score
GACGGTTTGGACTATCGGGACGTGCTA: 0.0552 z-score
TTAGATTTCGGGTATCTATTAGTGCTA: 1.27 z-score
GACTATCTCAGTTTCGAGACGTGCTAG: 2.72 z-score
GACGGTTGCGGACTGGGGACGTGCTAG: 1.09 z-score
TCACATTTTCGTTTTGTACTGTGCTAG: 3.76 z-score
